Measurements of several laboratories.
Each line is one published result; not all experiments were run side by side. Values joined by “and” are separate records of one study, mostly repeats; a detail may differ. Numbers after ± are the reported error.
Sequence of UniProt Q9UBN7 (whole entry, looked up): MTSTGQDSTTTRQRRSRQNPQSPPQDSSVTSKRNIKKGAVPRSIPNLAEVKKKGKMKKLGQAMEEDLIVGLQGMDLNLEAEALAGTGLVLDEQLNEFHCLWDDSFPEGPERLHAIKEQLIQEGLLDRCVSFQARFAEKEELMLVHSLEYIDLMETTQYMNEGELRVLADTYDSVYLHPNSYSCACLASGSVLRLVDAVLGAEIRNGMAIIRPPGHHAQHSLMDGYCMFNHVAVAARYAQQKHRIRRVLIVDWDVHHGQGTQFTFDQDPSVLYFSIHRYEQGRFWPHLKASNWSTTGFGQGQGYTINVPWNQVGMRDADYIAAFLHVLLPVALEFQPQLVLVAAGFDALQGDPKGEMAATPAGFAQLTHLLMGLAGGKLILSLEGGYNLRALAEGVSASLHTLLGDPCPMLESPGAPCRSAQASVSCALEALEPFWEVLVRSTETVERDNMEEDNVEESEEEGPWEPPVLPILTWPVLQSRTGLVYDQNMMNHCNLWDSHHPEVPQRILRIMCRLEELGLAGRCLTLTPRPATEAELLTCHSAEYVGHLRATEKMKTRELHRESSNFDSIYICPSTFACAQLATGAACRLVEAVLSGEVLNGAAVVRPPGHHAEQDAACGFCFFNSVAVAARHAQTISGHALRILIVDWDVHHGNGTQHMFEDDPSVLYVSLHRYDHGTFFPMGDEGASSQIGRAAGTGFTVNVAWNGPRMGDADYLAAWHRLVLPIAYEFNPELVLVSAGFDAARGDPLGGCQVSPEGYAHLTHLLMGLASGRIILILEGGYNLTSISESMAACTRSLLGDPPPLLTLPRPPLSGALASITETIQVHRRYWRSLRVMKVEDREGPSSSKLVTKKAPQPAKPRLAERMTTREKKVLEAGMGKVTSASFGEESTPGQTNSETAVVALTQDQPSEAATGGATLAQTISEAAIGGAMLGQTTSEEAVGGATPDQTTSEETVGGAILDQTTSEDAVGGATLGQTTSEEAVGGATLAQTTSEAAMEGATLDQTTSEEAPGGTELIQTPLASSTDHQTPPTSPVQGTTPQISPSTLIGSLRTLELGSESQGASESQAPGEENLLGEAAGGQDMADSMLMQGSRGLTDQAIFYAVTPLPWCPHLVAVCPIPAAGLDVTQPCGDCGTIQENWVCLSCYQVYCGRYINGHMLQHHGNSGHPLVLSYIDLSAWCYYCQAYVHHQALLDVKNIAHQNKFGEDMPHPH
Sequence of UniProt Q92995 (whole entry, looked up): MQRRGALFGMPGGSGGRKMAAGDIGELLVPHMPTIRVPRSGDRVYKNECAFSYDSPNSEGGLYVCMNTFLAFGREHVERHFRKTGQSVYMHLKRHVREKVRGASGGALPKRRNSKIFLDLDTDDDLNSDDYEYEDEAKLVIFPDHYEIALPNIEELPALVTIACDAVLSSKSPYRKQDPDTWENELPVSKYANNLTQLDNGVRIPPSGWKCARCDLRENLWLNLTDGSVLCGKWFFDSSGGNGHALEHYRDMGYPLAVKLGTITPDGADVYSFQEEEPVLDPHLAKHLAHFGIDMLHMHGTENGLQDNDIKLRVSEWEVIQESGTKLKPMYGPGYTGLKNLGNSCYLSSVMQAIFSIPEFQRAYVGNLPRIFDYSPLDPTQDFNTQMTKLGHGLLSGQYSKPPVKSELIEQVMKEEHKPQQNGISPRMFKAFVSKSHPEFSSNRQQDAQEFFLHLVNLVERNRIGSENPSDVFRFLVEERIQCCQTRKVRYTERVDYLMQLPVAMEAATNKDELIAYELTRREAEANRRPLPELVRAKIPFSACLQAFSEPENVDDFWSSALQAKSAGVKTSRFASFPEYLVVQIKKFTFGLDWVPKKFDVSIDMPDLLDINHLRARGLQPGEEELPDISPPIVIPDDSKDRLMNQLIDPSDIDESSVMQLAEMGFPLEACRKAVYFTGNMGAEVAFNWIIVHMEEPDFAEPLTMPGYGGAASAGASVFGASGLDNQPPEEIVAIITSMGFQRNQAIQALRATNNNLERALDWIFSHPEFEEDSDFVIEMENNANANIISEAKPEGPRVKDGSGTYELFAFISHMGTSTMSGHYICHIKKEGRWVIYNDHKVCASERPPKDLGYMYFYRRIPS

O=C(O)CCc1ccccc1OCc1ccccn1 — Kd (Ubiquitin carboxyl-terminal hydrolase 13, ZnF-UBD domain (USP13, Homo sapiens, UniProt Q92995)): 365 µM
CC1(C)C(/C=C/C=C/C=C/C=C2\N(CCCCS(=O)(=O)O)c3ccc4ccccc4c3C2(C)C)=[N+](CCCCS(=O)(=O)[O-])c2ccc3ccccc3c21 — Stokes shift (toluene; 20 °C): 29 nm
CCN1CCN(Cc2ccc(NC(=O)c3ccc(C)c(NC(=O)c4cncc(-c5cccs5)c4)c3)cc2C(F)(F)F)CC1 — half-life (C57BL/6 mice, epithelial lining fluid; intraperitoneal, 30 mg/kg): 1.94 h
C[C@@H](Nc1cc(F)cc(F)c1)c1cc(C(=O)N(C)C)cc2c(=O)cc(N3CCOCC3)oc12 — patients discontinuing for AE (refers to: Nausea; advanced solid tumour patients; oral, dose not given, dose expansion): 0%
CCOC(=O)N1C[C@H](CC(C)C)N[C@H]([C@H]2CCOC2)C1 — solubility (shake-flask, LC-HRMS; aqueous buffer; 16 h, pH 6.8): > 750 µM
O=c1[nH]c(=O)n([C@@H]2O[C@H](CO)[C@@H](O)[C@@H]2F)cc1CCC[18F] — biodistribution (nude mice, RG2 tumour, kidney; intravenous, dose not given, 2 h): 0.32 ± 0.17 %ID/g
N#Cc1ccc2c(c1)[C@H]1CCCN(C(=O)c3ccc4[nH]cnc4c3)[C@H]1C2 — cortisol level change (human; 40 mg, end of trial; reference: baseline): -102 nmol/L
Cc1cc(Nc2ncnc3ccc(NC4=NC(C)(C)CO4)cc23)ccc1Oc1ccn2ncnc2c1 — drug-related adverse events (refers to: Gout; healthy volunteers; oral, dose not given, grade 1-2): 3.6%
C=CC(=O)Nc1cc(Nc2nccc(-c3cn(C4CC4)c4ccccc34)n2)c(OC)cc1N(C)CCN(C)C — MPV (BALB/c nude mouse, LU0387 xenograft, blood; oral, 40 mg/kg): 7.22 ± 0.102 fL
C[C@H](CCC(=O)NCC(=O)O)[C@H]1CC[C@H]2[C@@H]3CC[C@@H]4C[C@H](OS(=O)(=O)O)CC[C@]4(C)[C@H]3CC[C@]12C — Cmin (human, plasma; control): 380 ± 90 nM
Cn1cc([C@H]2COC[C@@H](c3cc(Cl)cc(Cl)c3)N2)cn1 — solubility (shake-flask, LC-HRMS; aqueous buffer; 16 h, pH 6.8): > 750 µM
CC(C)COC(=O)c1ccc2c(c1)/C(=N/Nc1ccc(S(N)(=O)=O)cc1)C(=O)N2 — solubility (aqueous buffer; pH 7.4): < 2.97 µg/mL
Cc1cc([C@@H](C)Nc2ccccc2C(=O)O)c2nc(N3CCC(F)(F)CC3)c(C#N)c(=O)n2c1 — concentration (NOD-SCID mice, HCC1954 xenograft; intraperitoneal, 120 mg/kg once daily, 8 h): 1100 ng/mL
CC(C(=O)NCC(=O)NCC(CNC(=O)CNC(=O)C(C)N1CCN(CC(=O)[O-])CCN(CC(=O)[O-])CCN(CC(=O)[O-])CC1)(CNC(=O)CNC(=O)C(C)N1CCN(CC(=O)[O-])CCN(CC(=O)[O-])CCN(CC(=O)[O-])CC1)CNC(=O)CNC(=O)C(C)N1CCN(CC(=O)[O-])CCN(CC(=O)[O-])CCN(CC(=O)[O-])CC1)N1CCN(CC(=O)[O-])CCN(CC(=O)[O-])CCN(CC(=O)[O-])CC1.[Gd+3].[Gd+3].[Gd+3].[Gd+3] (stereo not drawn) — cumulative urinary excretion (ICP-MS; cynomolgus monkey; dose not given, 1 d 24 h, mass balance group; reference: dose): 97.2% and 97%
COC(=O)c1ccc([C@@H]2COC[C@H](c3ccc(CN4CCOCC4)cc3)N2)cc1 — solubility (shake-flask, LC-HRMS; aqueous buffer; 16 h, pH 6.8): > 750 µM
CCO[C@H]1CCN(Cc2c(OC)cc(C)c3[nH]ccc23)[C@H](c2ccc(C(=O)O)cc2)C1 — total half-life (mild hepatic impairment, plasma; oral, 200 mg single dose, mean): 27.4 h
Cn1cc(-c2ccc(-c3cncc(Cl)c3N3CCC4(CCNC4=O)CC3)cc2)cn1 — log2 fold change (COLO 205; gene expression, microarray, refers to: GLS mRNA; concentration not given, 2 h; reference: untreated cells): 2.03
CC/C=C\C/C=C\C/C=C\C/C=C\C/C=C\C/C=C\CCC(=O)O.Cc1cc(/C=C/C#N)cc(C)c1Nc1ccnc(Nc2ccc(C#N)cc2)n1 — equilibrium solubility (aqueous buffer; pH 4.5): 0.29 ± 0.01 µg/mL
CCC(C)n1ncn(-c2ccc(N3CCN(c4ccc(OCC5COC(Cn6cncn6)(c6ccc(Cl)cc6Cl)O5)cc4)CC3)cc2)c1=O (stereo not drawn) — trough plasma concentration (human, plasma; oral, dose not given, day 12 predose, median): 66.4 ng/mL
Cc1ncnc2c1ccn2[C@@H]1C[C@H](Oc2cc(C(F)F)c(F)c3c2CNCC3)[C@@H](O)[C@H]1O — Cmin (human; 4 mg twice daily, multiple dose, geometric mean): 26.2 ng/mL
O=C(Nc1nc2cccc(-c3ccc(CN4CCS(=O)(=O)CC4)cc3)n2n1)C1CC1 — treatment-emergent adverse events (refers to: joint swelling; human rheumatoid arthritis patients; oral, 300 mg once daily, 4 weeks, regardless of relatedness): 0%
O=C(O)Cn1cnc2c(oc3ccccc32)c1=O — Kd (Protein deacetylase HDAC6, ZnF-UBD domain (HDAC6, Homo sapiens, UniProt Q9UBN7)): 247 µM
Cn1cc([C@@H]2COC[C@H](c3ccc(C(F)(F)F)cc3)N2)cn1 — solubility (shake-flask, LC-HRMS; aqueous buffer; 16 h, pH 6.8): > 750 µM
O=C(c1cccnc1-c1ccncc1)N1CCC(O)(Cc2ccccc2)CC1 — Cmax at steady state (human, plasma; oral, 300 mg, together with: mefenamic acid): 2140 ng/mL
CNC(=O)c1ccc(-c2cnc3ncc(Cc4ccc5ncccc5c4)n3n2)cc1F — patients with adverse event (refers to: Dizziness, all grades; cancer patients; oral, dose not given, dose escalation, any causality): 16%
CCc1ccc(-c2ccc(-c3cc(F)c(F)c(F)c3)c(F)c2)cc1 — placental accumulation (rat, placenta; 10 ng/mL in perfusate, low dose, mixture of 21 LCMs): 2.45 ± 2.57 ng/g
C[C@@H](N)C1CCN(S(=O)(=O)c2cccc3cnccc23)CC1 — TEAE incidence (refers to: Photophobia; healthy volunteers; 150 mg, fed): 0%
Clc1ccc([C@H]2COC[C@H](c3cccc(Br)c3)N2)cc1 — solubility (shake-flask, LC-HRMS; aqueous buffer; 16 h, pH 6.8): < 4 µM
Cc1cccc(CNC(=O)c2cn(CCNC(=O)c3ccccc3S)c3cc4c(cc3c2=O)OC(F)(F)O4)n1 — MRT(0-inf) (Sprague-Dawley rat, male, plasma; intravenous, 20 mg/kg of parent drug): 1.24 ± 0.12 h
CNCCOC12CC3(C)CC(C)(CC(Cn4ncc(-c5ccc(N6CCc7cccc(C(=O)Nc8nc9ccccc9s8)c7C6)nc5C(=O)O)c4C)(C3)C1)C2 — heart rate change (beagle dog, male, anaesthetised; intravenous bolus, 0.03 mg/kg, 30 min; reference: baseline): 3%
C=CC(=O)N1CCC(Oc2cc3c(Nc4ccc(Cl)c(Cl)c4F)ncnc3cc2OC)CC1 — MRT(0-inf) (Sprague-Dawley rat, male, plasma; oral, 2 mg/kg, 1 weeks pretreatment, together with: Schisandrin B 20 mg/kg daily pretreatment): 4.56 ± 0.54 h
CCOc1c([C@H](C)n2nc(C)c3c(N)ncnc32)cc(Cl)c(F)c1[C@@H]1CNC(=O)C1 — patients with HR above 100 bpm (ECG; previously treated B-cell malignancy patients; oral, 5 mg once daily, baseline below thresholds): 0%
CCOC(=O)N1C[C@@H](C2CCCCC2)N[C@@H](c2cc(Cl)cc(Cl)c2)C1 — solubility (shake-flask, LC-HRMS; aqueous buffer; 16 h, pH 6.8): < 4 µM
O=C(O)CCC(=O)O.[2H]C([2H])([2H])Oc1cc(C)c2[nH]ccc2c1CN1CC[C@@H](C2CC2)C[C@H]1c1ccc(C(=O)O)cc1 — subjects with papular urticaria TEAE (multiple ascending dose; healthy Chinese subjects; 100 mg twice daily): 0%
COc1cc(C(=O)NC2CCN(C)CC2)c(F)cc1Nc1ncc(C(F)(F)F)c(Oc2cccc3c2C(=O)N(C)C3)n1 — Tmax at steady state (human patients, plasma; oral, 25 mg once daily repeated, median): 2.48 h
COc1ncc(-c2nc3c(n2C(C)C)[C@H](c2ccc(Cl)cc2)N(c2cc(Cl)cn(C)c2=O)C3=O)c(OC)n1 — median Tmax (human patients, plasma; oral, 350 mg, high-dose arm, cycle 2 day 1): 2.9 h
CCC(C)n1ncn(-c2ccc(N3CCN(c4ccc(OCC5COC(Cn6cncn6)(c6ccc(Cl)cc6Cl)O5)cc4)CC3)cc2)c1=O (stereo not drawn) — equilibrium solubility (aqueous medium; pH 2): 4 µg/mL
Cc1cc([C@H]2C[C@H]3[C@@H](C)SC(N)=N[C@@]3(c3ccc(F)cc3F)CO2)on1 — CSF concentration (male 129/SVE mouse, CSF; subcutaneous, 50 mg/kg, 5 h): 99 nM
Cc1c(NS(=O)(=O)c2cccc3nonc23)c(=O)n(-c2ccccc2)n1C — solubility (aqueous buffer; pH 7.4): 5.48 µg/mL
CCCC[C@H]1CC[C@H](c2ccc(C#N)cc2)CC1 — placental accumulation (Sprague-Dawley rat, female, placenta; 10 ng/mL in perfusate, 50 (unit not given), low dose, mixture of 21 LCMs): 2.36 ± 2.93 ng/g
C[C@@H](Oc1ccc(S(C)(=O)=O)cc1C(=O)N1C[C@@H]2C[C@]2(c2cc(C(F)(F)F)on2)C1)C(F)(F)F — linearity index (healthy young humans, plasma; oral, 25 mg once daily; reference: AUCtau,ss over AUC(0-inf)): 0.843
CC(C)(C(=O)N1CCOc2c(C#N)cncc2C1)C(F)F — Cmax dose proportionality ratio (healthy humans, both sexes, plasma; oral, 40 mg single dose, 1.33-fold dose increase; reference: 40 mg over 30 mg): 1.33
C[C@@H](c1ncncc1F)[C@](O)(Cn1cncn1)c1ccc(F)cc1F — drug-related TEAE incidence (refers to: Headache; human; oral, 200 mg): 0%
CCN1/C(=C/C(C)=O)Sc2ccc(F)cc21 — PR interval change (cynomolgus monkey; oral, 100 mg/kg, 24 h post-dose; reference: pre-dose): 97.8 ± 5.4%
C=CCNc1nc(C)c(-c2ccnc(Nc3cccc([N+](=O)[O-])c3)n2)s1 — solubility (aqueous buffer; pH 7.4): < 1.32 µg/mL

A few entries again:
C[C@@H](Oc1ccc(S(C)(=O)=O)cc1C(=O)N1C[C@@H]2C[C@]2(c2cc(C(F)(F)F)on2)C1)C(F)(F)F — linearity index (healthy young humans, plasma; oral, 25 mg once daily; reference: AUCtau,ss over AUC(0-inf)): 0.843
CC(C)(C(=O)N1CCOc2c(C#N)cncc2C1)C(F)F — Cmax dose proportionality ratio (healthy humans, both sexes, plasma; oral, 40 mg single dose, 1.33-fold dose increase; reference: 40 mg over 30 mg): 1.33
C[C@@H](c1ncncc1F)[C@](O)(Cn1cncn1)c1ccc(F)cc1F — drug-related TEAE incidence (refers to: Headache; human; oral, 200 mg): 0%
